{"data": "Results pooled from the literature", "note": "Each numbered part is a random draw from the data of one study; scales do not carry over between parts. Positions count from the first letter of the parent shown."}
{"data": "Sample 1", "target": "Histone acetyltransferase KAT6A, both winged helices, GST fusion (KAT6A, Homo sapiens, UniProt Q92794, residues 1-181)", "technique": "protein binding microarray", "molecule type": "double-stranded DNA, one strand shown", "medium": "in vitro", "concentration": "not given", "setting": "8-mer, flanks averaged, mean of 2 arrays, mostly near background", "relative to": "not given", "reading": "higher = stronger binding", "Construct (chain)": "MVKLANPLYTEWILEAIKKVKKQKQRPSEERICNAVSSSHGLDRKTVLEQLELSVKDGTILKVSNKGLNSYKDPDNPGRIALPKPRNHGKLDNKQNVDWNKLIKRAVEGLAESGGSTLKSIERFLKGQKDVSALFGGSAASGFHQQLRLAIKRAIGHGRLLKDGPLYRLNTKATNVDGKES"}
{"Strand": "CTGCACGC", "E-score": 0.146}
{"Strand": "AGTTTGAG", "E-score": -0.0413}
{"Strand": "ACATAGCA", "E-score": -0.135}
{"Strand": "CTTGTATC", "E-score": -0.0878}
{"Strand": "ACAGTTGA", "E-score": -0.0835}
{"data": "Sample 2", "target": "Interferon regulatory factor 5, full length, phosphomimetic (IRF5, Homo sapiens, UniProt Q13568-2, residues 1-514, S451D/S453D/S456D/S462D)", "technique": "protein-binding microarray", "molecule type": "double-stranded DNA, one strand shown", "medium": "in vitro", "concentration": "940 nM top", "setting": "60-bp whole probe", "together with": "salmon DNA 0.4 mg/ml", "relative to": "random background probes", "reading": "higher = stronger binding", "all sequences stand within": "GCCTAGCAC … GTCTTGATTCGCTTGACGCTGCTG"}
{"Strand": "GCCGGTTTCGGTTCCGGGACGTGCTAG", "fitted relative affinity [z-score]": 15.5}
{"Strand": "GACGGTATCGACTAGCGGGACGTGCTA", "fitted relative affinity [z-score]": 5.06}
{"Strand": "GACGACCTCAGACTGGAGACGTGCTAG", "fitted relative affinity [z-score]": -0.618}
{"Strand": "TTAGGACTGGGGTTTCGTTTAGTGCTA", "fitted relative affinity [z-score]": 3.11}
{"Strand": "TTAGGCATCGGTCTCGGTTAGTGCTAG", "fitted relative affinity [z-score]": 1.81}
{"Strand": "GTTTCTCTTTCCTTCTTGATGTGCTAG", "fitted relative affinity [z-score]": 4.58}
{"data": "Sample 3", "target": "CCNA1, cyclin fold, Cln2 fusion (human)", "technique": "yeast growth competition, sequencing", "medium": "yeast", "setting": "weak parent motif", "relative to": "not given", "reading": "higher = stronger binding", "parent": "PKMYT1 docking peptide (human); SFEPRNLLSLFED"}
{"Change": "S9I", "normalised enrichment score": 0.131}
{"Change": "P4S", "normalised enrichment score": 0.472}
{"Change": "L8R", "normalised enrichment score": 0.117}
{"Change": "D13L", "normalised enrichment score": 0.0958}
{"Change": "N6W", "normalised enrichment score": 0.198}
{"Change": "S9E", "normalised enrichment score": 0.231}
{"Change": "E12Q", "normalised enrichment score": -0.285}
{"Change": "S9M", "normalised enrichment score": 0.0913}
{"data": "Other studies, line by line"}
{"Molecule": "PhoQ, residues 284 288 289 292 302 303 SLANKL", "target": "PhoP, residues 12 14 15 18 19 SQCLL (Escherichia coli, UniProt P23836)", "test": "Sort-seq, refers to: YFP reporter", "system": "E. coli", "setting": "PhoQ-PhoP variant library, together with: 10 µM Mg2+", "how to read": "relative to: high Mg2+ state, higher = stronger signaling", "endpoint": "fold induction", "value": 5.51}
{"note": "For quick reference, copied from above (sample 3):"}
{"Change": "S9I", "normalised enrichment score": 0.131}
{"Change": "P4S", "normalised enrichment score": 0.472}
{"Change": "L8R", "normalised enrichment score": 0.117}
